Measurements of several laboratories.
A part holds a random share of what one study measured. Substitutions count along the parent as printed.

Study 1
Target: TAR DNA-binding protein 43, full length, His tag (TARDBP, Homo sapiens, UniProt Q13148, residues 1-414)
Technique: RNA Bind-n-Seq
Molecule type: RNA
Sample: in vitro
Concentration: 20 nM
Setting: 6-mer, flanks averaged, single round
With: 150 mM KCl
Relative to: input library
Reading: higher = stronger binding
Sequence	6-mer enrichment (R)
CGUCCC	0.682
AACGGA	0.86
GGUCCU	0.862
AUGUCC	0.629
AGCUCG	0.758
CACUGA	0.645
CGCUGU	0.764
CUAGUC	0.585

Study 2
Target: Max dimerization protein 1, bHLH-zipper, MAX partner unstated (MXD1, Homo sapiens, UniProt Q05195, residues 56-136)
Technique: protein-binding microarray
Molecule type: double-stranded DNA, one strand shown
Sample: in vitro
Concentration: not given
Setting: k-mer, scored over probes, only values ≥0.25
Reading: higher = stronger binding
Construct (chain): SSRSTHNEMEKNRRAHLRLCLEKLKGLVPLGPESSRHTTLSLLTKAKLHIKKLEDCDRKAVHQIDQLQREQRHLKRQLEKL
Sequence	E-score
AGCATGCC	0.354
AAATGTGG	0.251
CATGTGCA	0.471
CCCATGCG	0.418
CATGCACG	0.427
CGCAACAA	0.262
CATATGGA	0.294
CATGCGCC	0.417

Study 3
Target: CRIPT, C-terminal peptide
Technique: DHFR complementation, deep sequencing
Sample: yeast
Setting: single substitutions, model-inferred values
Relative to: wild type
Reading: higher = weaker binding
Parent: ERBIN, PDZ domain 1 (human); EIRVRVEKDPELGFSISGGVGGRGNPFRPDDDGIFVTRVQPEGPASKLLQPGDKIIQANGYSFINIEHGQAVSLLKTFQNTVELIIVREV; partner TKNYKQTSV
Change	binding free energy change [kcal/mol]
Q70I	0.062
K54C	0.188
T77L	0.249
G19E	1.19
L74T	0.00428
G33T	1.24
G19W	1.31
D53H	0.0039

Mixed results
Parent: viral docking peptide; KGVKRKLFAEDSS; partner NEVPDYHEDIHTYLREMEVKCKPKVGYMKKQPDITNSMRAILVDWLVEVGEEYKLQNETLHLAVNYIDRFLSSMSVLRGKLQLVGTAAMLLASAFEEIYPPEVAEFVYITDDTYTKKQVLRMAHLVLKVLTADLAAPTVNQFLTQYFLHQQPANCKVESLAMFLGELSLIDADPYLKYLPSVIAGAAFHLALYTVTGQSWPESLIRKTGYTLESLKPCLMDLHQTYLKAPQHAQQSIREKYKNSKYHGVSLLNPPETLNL
Change	target	test	system	conditions	how to read	endpoint	result
KGVKRKLFAEDPS [S12P]	CCNA2, cyclin fold, Cln2 fusion (human)	yeast growth competition, sequencing	yeast	strong parent motif	relative to: not given, higher = stronger binding	normalised enrichment score	6.77

For quick reference, copied from above (study 2):
Sequence	E-score
CCCATGCG	0.418
CGCAACAA	0.262
